Measurements gathered from unrelated publications.
Every numbered part comes from another study and shows a few of its results, in no order.

Set 1
Target: Sal-like protein 4, full length isoform B (SALL4, Homo sapiens, UniProt Q9UJQ4-2, residues 1-616)
Method: universal PBM
Molecule type: double-stranded DNA, one strand shown
Medium: in vitro
Concentration: not given
Setting: 8-mer, flanks averaged, mean of replicates
Reading: higher = stronger binding
Residues (chain): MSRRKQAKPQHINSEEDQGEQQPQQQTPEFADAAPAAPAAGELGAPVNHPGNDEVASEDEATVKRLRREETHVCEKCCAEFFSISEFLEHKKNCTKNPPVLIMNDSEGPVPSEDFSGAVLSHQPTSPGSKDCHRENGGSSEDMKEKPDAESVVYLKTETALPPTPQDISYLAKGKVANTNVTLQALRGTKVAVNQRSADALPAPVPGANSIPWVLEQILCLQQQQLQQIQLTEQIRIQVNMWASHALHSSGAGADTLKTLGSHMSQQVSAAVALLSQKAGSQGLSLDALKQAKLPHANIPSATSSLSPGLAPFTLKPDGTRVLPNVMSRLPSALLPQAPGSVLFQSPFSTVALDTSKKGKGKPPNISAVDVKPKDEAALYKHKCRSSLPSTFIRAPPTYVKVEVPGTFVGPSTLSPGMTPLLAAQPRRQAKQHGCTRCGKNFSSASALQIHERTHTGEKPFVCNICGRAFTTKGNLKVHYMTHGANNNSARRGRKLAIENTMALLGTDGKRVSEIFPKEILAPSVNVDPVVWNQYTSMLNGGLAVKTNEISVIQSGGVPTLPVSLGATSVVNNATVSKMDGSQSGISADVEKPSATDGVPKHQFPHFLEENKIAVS
Oligonucleotide	E-score
AAAAGTTA	0.267
GCGAATGA	0.134
CATCCATC	-0.051
ATGCCGGG	-0.324
ACAGCTTG	-0.136
ATCAACGG	0.0403

Set 2
Target: Interferon regulatory factor 5, full length, phosphomimetic (IRF5, Homo sapiens, UniProt Q13568-2, residues 1-514, S451D/S453D/S456D/S462D)
Method: protein-binding microarray
Molecule type: double-stranded DNA, one strand shown
Medium: in vitro
Concentration: 940 nM top
Setting: 60-bp whole probe
Added: salmon DNA 0.4 mg/ml
Relative to: random background probes
Reading: higher = stronger binding
Shared flanks, not repeated: GCCTAGCAC … GTCTTGATTCGCTTGACGCTGCTG
Oligonucleotide	fitted relative affinity
TTAAGTATCGACTATCGGTTAGTGCTA	6.15 z-score
TTAGGTATCCTTTTTCTTTAGTGCTAG	1.05 z-score
TTAGGTTTCGACACTCGGTTAGTGCTA	8.24 z-score
GACGGACTGCTACTCCTGACGTGCTAG	-0.284 z-score
TCATCTTTTCTTTTCTTACTGTGCTAG	2.02 z-score
TTAGATTTCGACTTTCGGTTAGTGCTA	3.98 z-score
TTAGCTATCGGTCTCGGTTAGTGCTAG	2.76 z-score

Set 3
Target: Ras GTPase-activating protein-binding protein 1, full length (G3BP1, Homo sapiens, UniProt Q13283)
UniProt Q13283, sequence (whole entry, looked up): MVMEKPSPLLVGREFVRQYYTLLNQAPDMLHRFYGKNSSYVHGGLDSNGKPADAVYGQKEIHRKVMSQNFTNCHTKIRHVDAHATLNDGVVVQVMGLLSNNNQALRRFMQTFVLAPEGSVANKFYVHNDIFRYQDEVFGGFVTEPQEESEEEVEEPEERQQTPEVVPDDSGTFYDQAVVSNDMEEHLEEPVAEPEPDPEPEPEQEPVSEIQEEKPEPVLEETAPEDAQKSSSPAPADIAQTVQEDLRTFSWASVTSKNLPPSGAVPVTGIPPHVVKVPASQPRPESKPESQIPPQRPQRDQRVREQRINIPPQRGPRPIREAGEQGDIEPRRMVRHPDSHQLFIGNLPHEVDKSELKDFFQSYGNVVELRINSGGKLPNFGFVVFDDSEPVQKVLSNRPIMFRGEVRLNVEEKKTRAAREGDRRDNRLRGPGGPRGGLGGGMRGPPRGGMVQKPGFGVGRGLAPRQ
Method: RNA Bind-n-Seq
Molecule type: RNA
Medium: in vitro
Concentration: 200 nM
Setting: whole 134-nt RNA, ends assumed
Added: 150 mM KCl
Relative to: input library
Reading: higher = stronger binding
Shared flanks, not repeated: GGGAGUUCUACAGUCCGACGAUC … UGGAAUUCUCGGGUGUCAAGG
Oligonucleotide	log2 enrichment
GCAGGAAGUAAAAACAAAUGGAAAUGCUUCGGAUAGUGGCAGGGGUCGGGGUUGCUAAGGAAAGGGUGGGAUGGGAGUGGGUAAAGAGUU	1.13
UCCUGUGCUACACAUCGUAUGUACCGAAUCGGAAAAAAGGGGAAAAAAGGGGAAAAAAGGAAAGUAUUAUGUUACGCCGUUCGGAUCUGC	-0.515
UGGACCCGGAGCUGAUGCAGAAGUUCAGCUGCCUGGGCACCACCGACAAGGACGUGCUCAUCUCCGAGUUCCAGAGGCUGCUCGGCUUCC	-0.495
UAACUUUAGAGAAGGAUCUGAUGGAUAUGGCAGUGGACGUGGAUUUGGGGAUGGCUAUAAUGGGUAUGGAGGAGGACCUGGAGGUGGCAA	0.405
AGUCCUGUGCUACACAUCGUAUGUACCGAAUCGGGUUUUUUUGGGAGGGAAAAAGGGAAAGUAUUAUGUUACGCCGUUCGGAUCUGCACU	0.0294

Mixed results
Substance	target	test	system	conditions	how to read	measurement	result
PhoQ, residues 284 288 289 292 302 303 QWGLFV	PhoP, residues 12 14 15 18 19 TQAIL (Escherichia coli, UniProt P23836)	Sort-seq, refers to: YFP reporter	E. coli	PhoQ-PhoP variant library, added: 10 µM Mg2+	relative to: high Mg2+ state, higher = stronger signaling	fold induction	3.58

Excerpt of the above (set 2):
Oligonucleotide	fitted relative affinity
TTAGGTATCCTTTTTCTTTAGTGCTAG	1.05 z-score
